Measurements of several laboratories.
Compare with care: the assays were run in different laboratories. Several values in a cell are separate wells, animals, samples, runs or records.

CCN(CC)CC(=O)Nc1cccc(-n2cc(-c3ccc4ccc(-c5cn(-c6cccc(NC(=O)CN(CC)CC)c6)nn5)cc4c3)nn2)c1
fold regulation (RCC4; PCR angiogenesis array, measured: TIMP2; 5 x IC50, 6 h, normoxia; reference: untreated): -1.42 fold

CN1CCCNC(=O)c2cccc(c2)C(=O)NCCCN(C)CCCNc2cccc3c2C(=O)c2cccc(c2C3=O)NCCC1
log2 fold change (SAS; RNA-seq, measured: CALU mRNA; 5 µM, 24 h; reference: untreated cells): -2.37

Cc1ncsc1-c1ccc(C(C)NC(=O)C2CC(O)CN2C(=O)C(NC(=O)CCCCCCCCCCN2CCCC(Nc3ncc(Cl)c(Nc4ccccc4S(=O)(=O)C(C)C)n3)C2)C(C)(C)C)cc1 (stereo not drawn)
log2 fold change (22Rv1; RNA-seq, measured: UFSP1 mRNA; concentration not given; reference: DMSO): -2.27

CO[C@@H]1[C@@H](OC(N)=O)[C@@H](O)[C@H](Oc2ccc3c(O)c(NC(=O)c4ccc(O)c(CC=C(C)C)c4)c(=O)oc3c2C)OC1(C)C
colony count (DLD-1 parental; 300 µM, replicate 2): 0.1

Cn1ncc2cc(-c3cncc(Cl)c3N3CCC4(CCNC4=O)CC3)ccc21
log2 fold change (LS174T; gene expression, microarray, measured: MT1E mRNA; concentration not given, 24 h; reference: untreated cells): -3.39

CNS(=O)(=O)Nc1nccc(Cc2c(C)c3ccc(Oc4ncccc4F)cc3oc2=O)c1F
IC50 (MKN-7; cell viability; 7 days): 0.0531 µM

COc1ccccc1-c1ccncc1C(=O)Nc1nnc(OCc2ccc(Cl)cc2)s1
colony survival (PEO1 BRCA2-mutant ovarian cancer; 0.5 µM, together with: olaparib 0.5 µM): 0% and 6.45%

Cc1nc(NCCOCCOCCOCCNc2ncc(C(=O)NC3=NN(c4ccc(Cl)c(Cl)c4)CC3)c(C)n2)ncc1C(=O)NC1=NN(c2ccc(Cl)c(Cl)c2)CC1
EC50 (K562; cell growth or viability, ATP luminescence; 72 h): 1.78 µM

CC(C)c1ccc(N(C)c2ccc3c(c2)OCC[C@H]3CNc2cnccc2C(=O)O)cc1
IC50 (TALL-1; cell growth or viability, ATP luminescence; 7 days): 0.0018 µM

Excerpt of the above:
Cc1nc(NCCOCCOCCOCCNc2ncc(C(=O)NC3=NN(c4ccc(Cl)c(Cl)c4)CC3)c(C)n2)ncc1C(=O)NC1=NN(c2ccc(Cl)c(Cl)c2)CC1
EC50 (K562; cell growth or viability, ATP luminescence; 72 h): 1.78 µM
